Results collected from several papers.

`O=C(C=CC(Cc1ccccc1)Nc1ccnc2cc(Cl)ccc12)NCCN1CCOCC1` (centres unmarked) has a Tmax of 60 min (female CD-1 mouse, plasma; oral, 5 mg/kg, single dose).
For `Cc1cc(O)cc(O)c1C(=O)c1c2c3c(c(O)cc(C)c3oc1=O)C(=O)c1c(O)cc(O)cc1-2`, the Tmax was 15.3 min (male Kunming mouse, plasma; intraperitoneal, 15 mg/kg).
With `NC(=O)c1c(F)ccc(OCc2nc3cc(Cl)cnc3s2)c1F` the Tmax was 24 min (mouse, plasma; oral, 3 mg/kg).
The Tmax of `NS(=O)(=O)NCC(F)(F)c1ccccc1F` is reported as 60 min (mouse, brain; oral, 5 mg/kg).
With `C[N+]1(CC(=O)OC2CCCCCCCCCCC2)CCCCC1` the Tmax was 120 min (mouse, plasma; intraperitoneal, 5 mg/kg, single dose).
For `Cc1cccc(O[C@H]2CCC[C@@H](C(C)CNCc3ccncc3)C2)c1` (relative stereo), the Tmax was 4.8 min (female C57BL/6 mouse, plasma; intravenous, 3 mg/kg).
`O.O=C(O)/C=C\C(=O)O.O=c1[nH]cnc2n[nH]cc12` has a Tmax of 30 min (female BALB/c mouse, plasma; oral, 30 mg/kg).
The Tmax of `CN(C)C(CNC(=O)Nc1cc(C(F)(F)F)ccc1N1CCOCC1)c1ccncc1` (centres unmarked) is reported as 60 min (C57BL/6 mouse, plasma; intraperitoneal, 2 mg/kg, single dose).
`N#Cc1cnc2cc(OCC3CCNCC3)c(F)cc2c1Nc1cc(F)c(OCc2cccc(Cl)n2)cc1Cl` has a Tmax of 102 min (female CD-1 mouse, plasma; oral, 20 mg/kg).
For `CN1CCc2cc(Nc3ncc(C(F)(F)F)c(NCc4cc[nH]n4)n3)ccc2C1`, the Tmax was 50 min (C57BL/6 mouse, plasma; oral, 50 mg/kg, single dose).
With `CCCc1nc2cc(C(=O)N3CCC4(CC3)CC(=O)c3cc5c(cc3O4)OC(C)(C)CC5)cc(C)c2[nH]1` the Tmax was 120 min (male C57BL/6 mouse, plasma; oral, 50 mg/kg).
`CCOc1c(C(C)(C)O)sc2cnc(Nc3ccc(N4CCC(N5CC6(COC6)C5)CC4)cc3OC)nc12` gave a Tmax of 60 min (male C57BL/6 mouse, plasma; oral, 10 mg/kg).
The Tmax of `CCS(=O)(=O)c1ccccc1C(=O)N1CCN(c2nc3ccc(F)cc3s2)C[C@@H]1C` is reported as 30 min (mouse, plasma; oral, 3 mg/kg).
The Tmax of `CC(C)Cn1c(SCC(=O)N2CCc3ccccc3C2)nc2cc(Cl)ccc2c1=O` is reported as 15 min (male C57BL/6 mouse, plasma; intraperitoneal, 10 mg/kg).
`O=C1OC2(c3ccccc31)c1cc(I)c(O)c(I)c1Oc1c2cc(I)c(O)c1I` has a Tmax of 24 min (female C57BL/6 mouse, plasma; oral, 100 mg/kg).
`CCCCCCCCCCCCCCCC(=O)N[C@@H](CCC(=O)N[C@@H](CCC(=O)NCCCC[C@H](NC(=O)[C@H](CC(=O)O)NC(=O)[C@H](CO)NC(=O)[C@@H](NC(=O)[C@H](Cc1ccccc1)NC(=O)[C@@H](NC(=O)CNC(=O)[C@H](CCC(N)=O)NC(=O)C(C)(C)NC(=O)[C@@H](N)Cc1c[nH]cn1)[C@@H](C)O)[C@@H](C)CC)C(=O)N[C@@H](CO)C(=O)N[C@@H](CCCCN)C(=O)N[C@@H](Cc1ccc(O)cc1)C(=O)N[C@@H](CC(C)C)C(=O)N[C@@H](CC(=O)O)C(=O)NC(C)(C)C(=O)N[C@@H](CCCNC(=N)N)C(=O)N[C@@H](C)C(=O)N[C@@H](C)C(=O)N[C@@H](CCC(N)=O)C(=O)N[C@@H](CC(=O)O)C(=O)N[C@@H](Cc1ccccc1)C(=O)N[C@H](C(=O)N[C@@H](CCC(N)=O)C(=O)N[C@@H](Cc1c[nH]c2ccccc12)C(=O)N[C@@H](CC(C)C)C(=O)N[C@@H](CCSC)C(=O)N[C@@H](CC(=O)O)C(=O)N[C@H](C(=O)O)[C@@H](C)O)C(C)C)C(=O)O)C(=O)O` has a Tmax of 180 min (male C57BL/6 mouse, plasma; subcutaneous, 10 nmol/kg, single dose).
The Tmax of `CN1CC[C@H](c2c(O)cc(O)c3c(=O)cc(/C=C/c4c(Cl)cccc4Cl)oc23)[C@H](O)C1` is reported as 120 min (male BALB/c mouse, plasma; oral, 50 mg/kg).
With `CN1CCC(N[C@@H]2CCc3[nH]c4c(C(N)=O)ccc(-c5ccccc5Cl)c4c3C2)CC1` the Tmax was 1.98 min (mouse, plasma; intravenous, 2 mg/kg).
The Tmax of `Cc1ccc2oc(-c3c4c(N)n[nH]c(=O)c4nn3-c3ccc(NC(=O)/C=C/CN(C)C)cc3)c(C)c2c1` is reported as 21 min (mouse, plasma; intraperitoneal, 3 mg/kg).
For `CCC(=C(c1ccc(Cl)cc1)c1ccc(OCCN2CCOCC2)cc1)c1ccc(OC)cc1`, the Tmax was 240 min (male C57BL/6 mouse, plasma; oral, 400 mg/kg, single dose).

Repeated from above:
With `C[N+]1(CC(=O)OC2CCCCCCCCCCC2)CCCCC1` the Tmax was 120 min (mouse, plasma; intraperitoneal, 5 mg/kg, single dose).
The Tmax of `CC(C)Cn1c(SCC(=O)N2CCc3ccccc3C2)nc2cc(Cl)ccc2c1=O` is reported as 15 min (male C57BL/6 mouse, plasma; intraperitoneal, 10 mg/kg).
